Published values gathered from unrelated publications.
Compare with care: the assays were run in different laboratories. “And” joins repeats or separate records; there may be more than shown. ± marks the error that the study gave.
UniProt Q9UKP6, sequence (whole entry, looked up): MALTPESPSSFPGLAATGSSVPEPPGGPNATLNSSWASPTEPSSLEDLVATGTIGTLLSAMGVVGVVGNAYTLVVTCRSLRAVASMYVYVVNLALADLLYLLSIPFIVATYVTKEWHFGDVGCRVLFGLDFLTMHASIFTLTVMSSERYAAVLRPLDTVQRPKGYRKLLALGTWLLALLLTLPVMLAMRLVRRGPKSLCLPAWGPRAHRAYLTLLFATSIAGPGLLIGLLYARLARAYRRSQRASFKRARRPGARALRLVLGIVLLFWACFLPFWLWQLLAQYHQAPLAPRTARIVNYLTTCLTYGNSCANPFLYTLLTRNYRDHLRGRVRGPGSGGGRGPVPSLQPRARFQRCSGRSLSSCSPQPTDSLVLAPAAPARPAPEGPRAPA
UniProt Q9BZL6, sequence (whole entry, looked up): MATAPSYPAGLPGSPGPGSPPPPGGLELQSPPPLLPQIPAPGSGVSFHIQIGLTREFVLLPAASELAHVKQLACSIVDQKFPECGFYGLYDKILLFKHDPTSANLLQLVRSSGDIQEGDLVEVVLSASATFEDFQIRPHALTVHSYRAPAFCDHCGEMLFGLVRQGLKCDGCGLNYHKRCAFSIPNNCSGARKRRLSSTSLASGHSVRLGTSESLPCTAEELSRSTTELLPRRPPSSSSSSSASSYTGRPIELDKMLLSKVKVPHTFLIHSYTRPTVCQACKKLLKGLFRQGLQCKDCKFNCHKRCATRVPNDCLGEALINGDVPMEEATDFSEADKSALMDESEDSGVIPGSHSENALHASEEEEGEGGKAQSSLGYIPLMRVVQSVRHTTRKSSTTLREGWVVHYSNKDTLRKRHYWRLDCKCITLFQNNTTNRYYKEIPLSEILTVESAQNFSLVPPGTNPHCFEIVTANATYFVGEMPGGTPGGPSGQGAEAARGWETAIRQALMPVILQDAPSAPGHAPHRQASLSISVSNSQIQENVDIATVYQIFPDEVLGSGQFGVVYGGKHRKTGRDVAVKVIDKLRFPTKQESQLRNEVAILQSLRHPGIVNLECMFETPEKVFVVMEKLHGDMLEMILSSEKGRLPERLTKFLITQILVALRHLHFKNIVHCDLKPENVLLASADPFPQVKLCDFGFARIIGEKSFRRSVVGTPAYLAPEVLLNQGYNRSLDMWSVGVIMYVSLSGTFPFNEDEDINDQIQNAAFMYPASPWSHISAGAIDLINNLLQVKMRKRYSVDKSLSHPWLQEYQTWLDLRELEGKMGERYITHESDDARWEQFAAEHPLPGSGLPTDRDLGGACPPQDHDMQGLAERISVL

| SMILES | target or system | test | system | setting | how to read | measurement | value |
| --- | --- | --- | --- | --- | --- | --- | --- |
| Cn1ncc(-c2ccc3c(=O)[nH]nc(CN)c3c2)c1-c1c(F)c(Cl)cc(OC2CC2)c1C#N | CAL-62 | cell viability, inhibitor, CellTiter-Glo |  | 120 h, baseline-subtracted |  | IC50 | 160 nM |
| COc1cc(-c2cn(C)c(=O)c3cnccc23)cc(OC)c1CN(C)C | MV4-11 | cell growth or viability, ATP luminescence |  |  |  | IC50 | 10600 nM |
| CC(C)C[C@H](NC(=O)[C@@H](CCCCNC(=O)[C@@H](Cc1ccccc1)NC(=O)CCCCCNC(=O)CN1CCN(CC(=O)O)CCN(CC(=O)O)CCN(CC(=O)O)CC1)NC(=O)[C@H](Cc1ccc(O)cc1)NC(=O)[C@H](CO)NC(=O)[C@H](Cc1c[nH]c2ccccc12)NC(=O)[C@H](Cc1c[nH]cn1)NC(=O)[C@@H]1CCC(=O)N1)C(=O)N[C@@H](CCCNC(=N)N)C(=O)N1CCC[C@H]1C(=O)NCC(N)=O [indium-111 labelled] |  |  | female athymic nude mice, liver | intravenous, 0.037 MBq, 0.5 h |  | tissue uptake | 1.3 ± 0.39 %ID/g |
| C/C(=N\N=c1/[nH]c(-c2ccccc2)cs1)c1c(O)c2ccccc2oc1=O | human Skin fibroblast | cell growth or viability, MTT |  | 48 h |  | IC50 | > 100000 nM |
| CN(C)CCOc1cc(NC(=O)c2cccc(C(=O)Nc3cc(OCCN(C)C)c4ccccc4n3)n2)nc2ccccc12 | HT-1080 | cell growth or viability, ATP luminescence |  | 72 h |  | IC50 | 3300 nM |
| O=C(NCc1cc(F)cc(F)c1)[C@@]1(O)CCN(c2ccc3[nH]ccc3c2)C1=O | OVXF1353 ovarian tumour | colony formation, soft agar clonogenic |  |  |  | IC50 | > 10000 nM |
| CC(C)c1ccc(N(C)c2ccc3c(c2)OCC[C@H]3CNc2cnccc2C(=O)O)cc1 | NCI-H1944 | cell growth or viability, ATP luminescence |  | 7 days |  | IC50 | 16.3 nM |
| C=CC(=O)Nc1cccc(Cn2ncc3cnc(Nc4cnn(CCOC)c4)nc32)c1 | MEK5 human | binding, KINOMEscan |  | 100 nM | lower = stronger binding | percent of control | 80% |
| Nc1ncc(-c2cc(-c3cnn(CC(F)(F)F)c3)ncc2F)nc1C(=O)NC1CNCC(F)C1 (centres unmarked) | PIK3C2B | KINOMEscan |  | 1 µM | reference: DMSO control | remaining binding | 71% |
| CN(C(=O)c1cncc(N2Cc3cnn(Cc4ccc(F)cc4)c3C2)n1)C1CCCC1 | HEK293 expressing GluA1 and GluA2 | glutamate excitotoxic cell death, CellTox Green |  | added: glutamate |  | IC50 | 54 nM |
| Cn1ncc2cc(-c3cncc(Cl)c3N3CCC4(CCNC4=O)CC3)ccc21 | LS174T | gene expression, microarray, measured: TNFRSF12A (FN14) mRNA |  | concentration not given, 24 h | reference: untreated cells | log2 fold change | -2.63 |
| CN1CCN(C(=O)c2cccc(N3Cc4cn(Cc5ccc(F)cc5)nc4C3)c2)CC1 | HEK293 expressing GluA1 and GluA2 | glutamate excitotoxic cell death, CellTox Green |  | added: glutamate |  | IC50 | 33 nM |
| COc1cc(-c2cc(C(C)=O)n3ccccc23)cc(OC)c1Cn1ccnc1 | MV4-11 | cell growth or viability, ATP luminescence |  |  |  | IC50 | 720 nM |
| COC1CN([C@H]2CC[C@H]([C@@]3(C)Oc4c(Cl)cc(C(=O)NCc5c(SC)cc(C)[nH]c5=O)c(C)c4O3)CC2)C1 |  | RNA-seq, measured: ARNT2 mouse homolog | mouse, HT-1376 xenograft, whole blood | dose not given | reference: vehicle | log2 fold change | 2.85 |
| CN1CCC(N[C@@H]2CCc3[nH]c4c(C(N)=O)ccc(-c5ccccc5Cl)c4c3C2)CC1 | A549 parental | cell proliferation |  |  |  | IC50 | 36.4 nM |
| CCOC(=O)/C=C1\S/C(=N\N=C\c2cccc3cc4ccccc4nc23)N(C)C1=O | SK-BR-3 | cell growth or viability, MTT |  | 48 h |  | IC50 | > 50000 nM |
| CN(C)C(=O)c1ccnc(N2Cc3cn(Cc4ccc(F)cc4Cl)nc3C2)n1 | HEK293 expressing GluA1 and GluA2 | glutamate excitotoxic cell death, CellTox Green |  | added: glutamate |  | IC50 | 7 nM |
| C=CC(=O)N1CCCC(n2c(=O)c3ncccc3n(Cc3ccc(Oc4ccccc4)cc3)c2=O)C1 (centres unmarked) | Rec1 | cell growth or viability, MTT |  | 72 h |  | IC50 | 100 nM |
| CN1CCCNC(=O)c2cccc(c2)C(=O)NCCCN(C)CCCNc2cccc3c2C(=O)c2cccc(c2C3=O)NCCC1 | SAS | RNA-Seq, measured: ARIH2 mRNA |  | 1 µM, 6 h | reference: untreated cells | log2 fold change | -0.788 |
| O=c1cc(-c2ccccc2)oc2cc(O)cc([O][Ga+][O]c3cc(O)cc4oc(-c5ccccc5)cc(=O)c34)c12 | LO2 | cell viability, MTT |  |  |  | IC50 | > 200000 nM |
| Cc1cnc(Nc2ccc3c(c2)CCN(C(=O)/C=C/C(=O)C2CCC(C)CC2)C3)nc1-c1cnn(C(C)C)c1 (centres unmarked) | HCC70 | cell growth or viability, MTT |  | 48 h |  | IC50 | 940 nM |

| SMILES | target or system | test | system | setting | how to read | measurement | value |
| --- | --- | --- | --- | --- | --- | --- | --- |
| CNC(=O)C1CCCN(C(=O)C2CC3CCC2N3C(=O)[C@@H]2C[C@@H](O)CN2C(=O)NCc2cccc(Cl)c2F)C1 (mixture of isomers) | Cytochrome P450 2C9 (CYP2C9, Homo sapiens, UniProt P11712) | preincubation without NADPH | human | 0.0686 µM | reference: negative control | remaining activity | 102% and 93% and 98.2% |
| NC(=O)c1ccc(-c2ccccc2Cl)c2c3c([nH]c12)CC[C@H](N)C3 | RKO | cell growth or viability |  |  |  | IC50 | 9.52 nM |
| O=C(NCC(F)(F)F)c1cccc(N2Cc3cnn(Cc4ccc(F)cc4)c3C2)c1 | HEK293 expressing GluA1 and GluA2 | glutamate excitotoxic cell death, CellTox Green |  | added: glutamate |  | IC50 | 13 nM |
| CC(C)CN1C(=O)CS/C1=N\N=C\c1cccc2cc3ccccc3nc12 | SK-BR-3 | cell growth or viability, MTT |  | 48 h |  | IC50 | > 50000 nM |
| COCCNC(=O)c1cccc(N2Cc3cnn(Cc4ccc(F)cc4)c3C2)c1 | HEK293 expressing GluA1 and GluA2 | glutamate excitotoxic cell death, CellTox Green |  | added: glutamate |  | IC50 | 1060 nM |
| CCOc1cncc(-c2ccc(NC(=O)C3(c4ccnc(NS(=O)(=O)C5CC5)n4)CCOCC3)nc2)n1 | EFE-184 | cell proliferation, CellTiter-Glo |  | 72 h |  | IC50 | 197 nM |
| CC(CCC(=O)OCc1cccc(CN(C(=O)OCc2ccc(B3OC(C)(C)C(C)(C)O3)cc2)[c-]2cccc2)c1)C1CCC2C3C(=O)CC4CC(=O)CCC4(C)C3CC(=O)C12C.[Fe+2].c1cc[cH-]c1 (centres unmarked) | BL2 | cell growth or viability, MTT |  | 48 h |  | IC50 | 5000 nM |
| CCN(C(=O)c1cc(F)ccc1Oc1nncnc1N1CCC2(C1)CN([C@H](CCCN(C)CCOC)C(C)C)C2)C(C)C | MOLM-14 (KMT2A-AF9, FLT3-ITD) | mRNA level, QuantiGene multiplex, measured: PBX3 |  |  |  | IC50 | 106 ± 25 nM |
| C=C(NC(=O)c1csc(-c2nc3c(cc2O)-c2nc(cs2)C(=O)NC(C(C)O)C(=O)NC(=C(C)OC)c2nc(cs2)C(=O)NC2c4nc(cs4)C(=O)NC(COC(=O)c4c5c6c(cccc6n4O)COC(=O)C(OC4CC(C)(O)C(N(C)C)C(C)O4)C2OC5)c2nc-3cs2)n1)C(N)=O (centres unmarked) |  |  | ICR mice, Streptococcus pneumoniae ATCC 49169 infected, immunocompromised, blood | intravenous, 2 mg/kg/day three times daily |  | half-life | 1.02 h |
| Fc1ccc(Cn2ncc3c2CN(c2nccc(N4CCCC4)n2)C3)cc1 | HEK293 expressing GluA1 and GluA2 | glutamate excitotoxic cell death, CellTox Green |  | added: glutamate |  | IC50 | 496 nM |
| CNS(=O)(=O)Nc1nccc(Cc2c(C)c3ccc(Oc4ncccc4F)cc3oc2=O)c1F | NCI-H520 | cell viability |  | 7 days |  | IC50 | 430 nM |
| CO[C@@H](C[C@H]1C(C)=CC[C@@H]2[C@]3(C)C[C@H](O[C@@H]4O[C@@H](C)[C@H](O)[C@@H](O)[C@H]4O)[C@@H](O)C(C)(C)[C@H]3CC[C@]21C)[C@H](N)C(=O)O | THP-29 | cell viability, CCK-8 |  | 72 h |  | IC50 | > 10000 nM |
| CN(C)C(=O)c1cccc(N2Cc3cn(Cc4cccc(F)c4)nc3C2)c1 | HEK293 expressing GluA1 and GluA2 | glutamate excitotoxic cell death, CellTox Green |  | added: glutamate |  | IC50 | 47 nM |
| Cc1nn(-c2cccc(N)c2)c(=O)c2cnc(Nc3ccc(N4CCNCC4)cc3)nc12 | PRKD2 (Homo sapiens, UniProt Q9BZL6) | enzyme activity, inhibitor |  |  |  | IC50 | 1750 nM |
| C=C1CC[C@H](OCCCNC(=O)CCOCCOCCOCCOCCOCCOCCOCCOCCOCCOCCOCCOCCOCCOCCOCCOCCOCCOCCOCCOCCOCCOCCOCCOCCOCCOCCOCCOCCOCCOCCOCCOCCOCCOCCOCCOCCNC(=O)CCN2C(=O)CC(SC[C@H](NC(=O)[C@H](Cc3ccccc3)NC(=O)[C@H](CC(N)=O)NC(=O)[C@H](Cc3c[nH]cn3)NC(=O)[C@@H](NC(=O)[C@H](CC(=O)O)NC(=O)[C@H](CCC(N)=O)NC(=O)[C@H](CC(C)C)NC(=O)[C@H](CCCCN)NC(=O)[C@H](CCCCN)NC(=O)[C@H](CCCNC(=N)N)NC(=O)[C@H](CC(C)C)NC(=O)[C@H](Cc3c[nH]c4ccccc34)NC(=O)[C@H](CCC(=O)O)NC(=O)[C@@H](NC(=O)[C@H](CCCNC(=N)N)NC(=O)[C@H](CCC(=O)O)NC(=O)[C@H](CCSC)NC(=O)[C@H](CO)NC(=O)[C@H](CC(N)=O)NC(=O)[C@H](CC(C)C)NC(=O)[C@H](Cc3c[nH]cn3)NC(=O)[C@H](CCCCN)NC(=O)CNC(=O)[C@H](CC(C)C)NC(=O)[C@H](CC(N)=O)NC(=O)[C@H](Cc3c[nH]cn3)NC(=O)[C@H](CCSC)NC(=O)[C@H](CC(C)C)NC(=O)[C@H](CCC(N)=O)NC(=O)[C@@H](NC(=O)[C@H](CCC(=O)O)NC(=O)[C@H](CO)NC(=O)[C@@H](NC(=O)[C@@H](N)CO)C(C)C)[C@@H](C)CC)C(C)C)C(C)C)C(=O)O)C2=O)C/C1=C/C=C1\CCC[C@]2(C)[C@@H]([C@H](C)CCCC(C)(C)O)CC[C@@H]12 (some centres unmarked) |  |  | male Sprague-Dawley rat, plasma | subcutaneous, 300 µg/kg, single dose |  | clearance | 0.382 mL/min/kg |
| Cc1ccc([N+](=O)[O-])cc1S(=O)(=O)N(C)/N=C/c1cnc2ccc(Br)cn12 | HOP-62 | cell growth or viability |  |  |  | IC50 | 8 nM |
| CN(C)C(=O)c1cccc(N2Cc3cnn(Cc4ccc(F)cc4)c3C2)c1 | HEK293 expressing GluA1 and GluA2 | glutamate excitotoxic cell death, CellTox Green |  | added: glutamate |  | IC50 | 90 nM |
| Cc1ncsc1-c1ccc(C(C)NC(=O)C2CC(O)CN2C(=O)C(NC(=O)CCCCCCCCCCN2CCCC(Nc3ncc(Cl)c(Nc4ccccc4S(=O)(=O)C(C)C)n3)C2)C(C)(C)C)cc1 (centres unmarked) | 22Rv1 | RNA-seq, measured: ZNF302 mRNA |  | concentration not given | reference: DMSO | log2 fold change | -1.32 |
| CC(C)[C@H](NC(=O)[C@@H]1CSSC(C)(C)[C@H](NC(=O)[C@@H](N)CC(=O)O)C(=O)N[C@@H](Cc2ccccc2)C(=O)N[C@H](Cc2c[nH]c3ccccc23)C(=O)N[C@@H](CCCN)C(=O)N[C@@H](Cc2ccc(O)cc2)C(=O)N1)C(=O)O | UTS2R (Homo sapiens, UniProt Q9UKP6) | agonist, BRET2 biosensor | HEK293 |  |  | EC50 | 40.7 nM |
| Cc1ccc(C(C)C)cc1.Cc1ccc(C(C)C)cc1.Cc1ccc(C(C)C)cc1.Cc1ccc(C(C)C)cc1.O=S(=O)(O)C(F)(F)F.O=S(=O)(O)C(F)(F)F.O=S(=O)(O)C(F)(F)F.O=S(=O)(O)C(F)(F)F.c1ccc2c3c4ccccc4c(c2c1)-c1cn(nn1)-c1cc[n+](cc1)[Ru-]1[O]c2c4ccccc4c4c5c(c6ccccc6c(c25)=[O+]1)=[O+][Ru-]([O]4)[n+]1ccc(cc1)-n1cc(nn1)-c1c2ccccc2c(c2ccccc12)-c1cn(nn1)-c1cc[n+](cc1)[Ru-]1[O]c2c4ccccc4c4c5c(c6ccccc6c(c25)=[O+]1)=[O+][Ru-]([O]4)[n+]1ccc(cc1)-n1cc-3nn1 | AGS | cell growth, MTT |  | 24 h, 20 µM preincubated in medium 48 h at 37 °C |  | IC50 | 17200 ± 1100 nM |

For quick reference, copied from above:
| SMILES | target or system | test | system | setting | how to read | measurement | value |
| --- | --- | --- | --- | --- | --- | --- | --- |
| CNS(=O)(=O)Nc1nccc(Cc2c(C)c3ccc(Oc4ncccc4F)cc3oc2=O)c1F | NCI-H520 | cell viability |  | 7 days |  | IC50 | 430 nM |
| Cc1ncsc1-c1ccc(C(C)NC(=O)C2CC(O)CN2C(=O)C(NC(=O)CCCCCCCCCCN2CCCC(Nc3ncc(Cl)c(Nc4ccccc4S(=O)(=O)C(C)C)n3)C2)C(C)(C)C)cc1 (centres unmarked) | 22Rv1 | RNA-seq, measured: ZNF302 mRNA |  | concentration not given | reference: DMSO | log2 fold change | -1.32 |
